# Measured values from different studies.
# Lines come from different studies, so protocols differ. “And” joins repeats or separate records; there may be more than shown. Numbers after ± are the reported error.
SMILES,target or system,test,test system,setting,how to read,endpoint,result
Nc1nc(-c2ccccc2)nc2[nH]nc(Nc3ccc(C(F)(F)F)cc3)c12,coxsackievirus B3,,"31-1-93, NMRI mice, CVB3 chronic myocarditis","oral, 100 mg/kg twice daily, day 24, dosed days 3 to 10, score scale 0 to 7",direction not given,clinical score,0.3
CN[C@H](CC(C)C)C(=O)N[C@H]1C(=O)N[C@@H](CC(N)=O)C(=O)N[C@H]2C(=O)N[C@H]3C(=O)N[C@H](C(=O)N[C@H](C(=O)O)c4cc(O)cc(O)c4-c4cc3ccc4O)[C@H](O)c3ccc(c(Cl)c3)Oc3cc2cc(c3O[C@@H]2O[C@H](CO)[C@@H](O)[C@H](O)[C@H]2O[C@H]2C[C@](C)(N)[C@H](O)[C@H](C)O2)Oc2ccc(cc2Cl)[C@H]1O,Staphylococcus epidermidis,,"9397, female ICR mice, peritonitis, lung",dose not given,,bacterial load,5.87 log CFU and 6.14 log CFU and 5.07 log CFU and 6.19 log CFU and 5.32 log CFU and 7.47 log CFU
Cn1cc(-c2ccc(-c3cncc(Cl)c3N3CCC4(CCNC4=O)CC3)cc2)cn1,COLO 205,"gene expression, microarray, refers to: BCL2L1 mRNA",,"concentration not given, 2 h",reference: untreated cells,log2 fold change,2.24
CC(=Nc1ccc(N=Cc2cc[nH]c2)cc1)N(C)C,Necator americanus,,infected hamsters,"oral, 50 mg/kg single",reference: untreated,worm burden reduction,95 ± 5%
COC(=O)[C@@H](CCSC)NCc1cc2ccccc2nc1SC,Pseudomonas aeruginosa,,,"2 µg/mL, added: pentamidine 100 µM",reference: control,growth,98.3%
CC(C)n1ncc2c(C(=O)NCC3(C)CNC3)cc(C3CC3)nc21,Enterovirus D68,time-of-addition,"RD, US/MO/14-18947","3 µM, 5 to 5 h post infection",,virus titre,1400 PFU/mL and 2000 PFU/mL
Oc1ccc(/C=C/c2cc(O)cc(O)c2)cc1,OCI-Ly1,,,"0.5 µM, 120 h",,viability,174%
C/C(=N/c1ccc(/N=C/c2ccc(/C=N/c3ccc(/N=C(/C)N(C)C)cc3)cc2)cc1)N(C)C,Necator americanus,,infected hamsters,"oral, 50 mg/kg single dose, 49 days after infection",,worm burden reduction,89.4%
CC1=CC(=O)CC(C)(C)[C@@]1(O)/C=C/C(C)=C\C(=O)O,OCI-Ly1,,,"0.5 µM, 120 h",,viability,8.09%
Cc1cc(OC(C)C)ccc1C(=O)C(C)(C)NC(=O)c1sccc1C,Botrytis cinerea,appressorium formation,B05.10,3 µg/mL,,inhibition,99.6 ± 0.8%
CC(C)C[C@H](NC(=O)C[C@H](O)[C@H](CC(C)C)NC(=O)[C@H](Cc1c[nH]cn1)NC(=O)CNC(=O)[C@@H](NC(=O)[C@H](C)NC(=O)[C@H](Cc1c[nH]c2ccccc12)NC(=O)[C@H](CCC(N)=O)NC(=O)[C@@H](Cc1ccccc1)NC(=O)COCCOCCNC(=O)CCC(C(=O)O)N1CCN(CC(=O)O)CCN(CC(=O)O)CCN(CC(=O)O)CC1)C(C)C)C(N)=O (stereo partly drawn) [lutetium-177 labelled],,,"BALB/c nu/nu mice, brain","intravenous, 100 pmol, 1 h, added: PA 300 µg",,tissue uptake,0.02 ± 0.01 %ID/g
COC(=O)[C@H](Cc1c[nH]c2ccccc12)NCc1cc2ccccc2nc1SC,Pseudomonas aeruginosa,,,"32 µg/mL, without pentamidine",reference: control,growth,96.3%

# A few entries again:
SMILES,target or system,test,test system,setting,how to read,endpoint,result
CN[C@H](CC(C)C)C(=O)N[C@H]1C(=O)N[C@@H](CC(N)=O)C(=O)N[C@H]2C(=O)N[C@H]3C(=O)N[C@H](C(=O)N[C@H](C(=O)O)c4cc(O)cc(O)c4-c4cc3ccc4O)[C@H](O)c3ccc(c(Cl)c3)Oc3cc2cc(c3O[C@@H]2O[C@H](CO)[C@@H](O)[C@H](O)[C@H]2O[C@H]2C[C@](C)(N)[C@H](O)[C@H](C)O2)Oc2ccc(cc2Cl)[C@H]1O,Staphylococcus epidermidis,,"9397, female ICR mice, peritonitis, lung",dose not given,,bacterial load,5.87 log CFU and 6.14 log CFU and 5.07 log CFU and 6.19 log CFU and 5.32 log CFU and 7.47 log CFU
